Published values collected from several papers.
Parts stem from different laboratories: compare values within a part only. Changes are numbered by the printed parent chain.

Set 1
Target: Sal-like protein 4, full length isoform A (SALL4, Homo sapiens, UniProt Q9UJQ4, residues 1-1053)
Chain of UniProt Q9UJQ4 (whole entry, looked up): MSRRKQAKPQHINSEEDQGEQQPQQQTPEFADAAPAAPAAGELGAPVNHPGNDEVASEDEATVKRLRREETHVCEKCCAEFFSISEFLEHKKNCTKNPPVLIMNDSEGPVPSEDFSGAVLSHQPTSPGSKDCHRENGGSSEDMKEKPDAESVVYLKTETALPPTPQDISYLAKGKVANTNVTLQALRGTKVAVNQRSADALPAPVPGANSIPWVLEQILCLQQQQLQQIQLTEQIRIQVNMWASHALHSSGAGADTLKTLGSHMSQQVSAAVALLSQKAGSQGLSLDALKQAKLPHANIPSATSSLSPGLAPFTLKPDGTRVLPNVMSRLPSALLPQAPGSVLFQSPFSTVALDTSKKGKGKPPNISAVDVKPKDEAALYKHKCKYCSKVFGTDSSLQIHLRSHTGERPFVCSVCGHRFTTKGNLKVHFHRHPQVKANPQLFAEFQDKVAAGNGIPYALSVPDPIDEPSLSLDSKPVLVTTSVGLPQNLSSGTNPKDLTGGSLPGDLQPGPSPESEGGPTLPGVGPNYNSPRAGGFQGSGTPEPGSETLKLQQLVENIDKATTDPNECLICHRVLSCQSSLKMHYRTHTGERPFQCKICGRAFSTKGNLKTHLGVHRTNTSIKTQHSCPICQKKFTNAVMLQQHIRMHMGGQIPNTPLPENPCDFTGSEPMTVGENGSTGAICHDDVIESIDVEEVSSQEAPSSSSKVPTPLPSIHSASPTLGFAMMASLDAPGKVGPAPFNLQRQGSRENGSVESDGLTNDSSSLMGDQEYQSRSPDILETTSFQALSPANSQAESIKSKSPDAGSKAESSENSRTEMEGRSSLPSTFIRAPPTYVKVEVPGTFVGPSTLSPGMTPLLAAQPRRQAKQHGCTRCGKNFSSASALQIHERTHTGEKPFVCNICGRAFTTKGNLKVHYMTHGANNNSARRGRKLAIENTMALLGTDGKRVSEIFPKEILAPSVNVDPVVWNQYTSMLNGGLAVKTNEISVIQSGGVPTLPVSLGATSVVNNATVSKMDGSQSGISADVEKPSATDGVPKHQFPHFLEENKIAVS
Method: universal PBM
Molecule type: double-stranded DNA, one strand shown
Medium: in vitro
Tested at: 600 nM
Setting: 8-mer, flanks averaged, mean of replicates
Direction: higher = stronger binding
Endpoint: E-score
Oligonucleotide = GGGGAGTA; result = -0.0675
Oligonucleotide = ATGCGAGA; result = 0.0702
Oligonucleotide = CTCATGCA; result = 0.119
Oligonucleotide = CATCCTCA; result = -0.0657
Oligonucleotide = GACCGGGC; result = -0.397
Oligonucleotide = AGTGACGG; result = -0.164
Oligonucleotide = AACCTGTA; result = 0.135

Set 2
Target: CCNB2, cyclin fold, Cln2 fusion (human)
Method: yeast growth competition, sequencing
Medium: yeast
Setting: weak parent motif
Reference: not given
Direction: higher = stronger binding
Endpoint: normalised enrichment score
Parent: RBL1 docking peptide (human); GSAKRRLFGEDPP; partner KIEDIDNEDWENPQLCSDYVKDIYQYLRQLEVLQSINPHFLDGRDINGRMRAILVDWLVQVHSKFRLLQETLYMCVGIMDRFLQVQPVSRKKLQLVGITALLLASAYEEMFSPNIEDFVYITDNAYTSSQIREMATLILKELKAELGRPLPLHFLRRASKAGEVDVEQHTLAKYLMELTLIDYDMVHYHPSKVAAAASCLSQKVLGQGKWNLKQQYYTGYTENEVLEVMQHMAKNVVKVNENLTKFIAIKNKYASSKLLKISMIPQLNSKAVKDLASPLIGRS
Variant = GSAKRCLFGEDPP [R6C]; result = -0.0578
Variant = GSAKRRLFGKDPP [E10K]; result = 0.0199
Variant = GSFKRRLFGEDPP [A3F]; result = 0.881

Set 3
Target: Histone acetyltransferase KAT6A, winged helix 1, GST fusion (KAT6A, Homo sapiens, UniProt Q92794, residues 1-85)
Method: protein binding microarray
Molecule type: double-stranded DNA, one strand shown
Medium: in vitro
Tested at: not given
Setting: 8-mer, flanks averaged, mean of 2 arrays, mostly near background
Reference: not given
Direction: higher = stronger binding
Endpoint: E-score
Target sequence (chain): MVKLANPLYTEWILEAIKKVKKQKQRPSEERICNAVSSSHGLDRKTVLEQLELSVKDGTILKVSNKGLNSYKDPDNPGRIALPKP
Oligonucleotide = ACCCAAAA; result = -0.148
Oligonucleotide = ATTGCCTA; result = -0.192
Oligonucleotide = CGTATGGA; result = 0.031
Oligonucleotide = CGATCGAC; result = 0.0862

Mixed results
Substance = PhoQ, residues 284 288 289 292 302 303 GASLAW; target = PhoP, residues 12 14 15 18 19 LHTVM (Escherichia coli, UniProt P23836); test = Sort-seq, item: YFP reporter; system = E. coli; setting = PhoQ-PhoP variant library, together with: 10 µM Mg2+; scale = reference: high Mg2+ state, higher = stronger signaling; endpoint = fold induction; result = 12.1

A few entries again (set 1):
Oligonucleotide = ATGCGAGA; result = 0.0702
